Published values collected from several papers.
Parts stem from different laboratories: compare values within a part only.

Study 1
Target: Ras GTPase-activating protein-binding protein 1, full length (G3BP1, Homo sapiens, UniProt Q13283)
UniProt Q13283, sequence (whole entry, looked up): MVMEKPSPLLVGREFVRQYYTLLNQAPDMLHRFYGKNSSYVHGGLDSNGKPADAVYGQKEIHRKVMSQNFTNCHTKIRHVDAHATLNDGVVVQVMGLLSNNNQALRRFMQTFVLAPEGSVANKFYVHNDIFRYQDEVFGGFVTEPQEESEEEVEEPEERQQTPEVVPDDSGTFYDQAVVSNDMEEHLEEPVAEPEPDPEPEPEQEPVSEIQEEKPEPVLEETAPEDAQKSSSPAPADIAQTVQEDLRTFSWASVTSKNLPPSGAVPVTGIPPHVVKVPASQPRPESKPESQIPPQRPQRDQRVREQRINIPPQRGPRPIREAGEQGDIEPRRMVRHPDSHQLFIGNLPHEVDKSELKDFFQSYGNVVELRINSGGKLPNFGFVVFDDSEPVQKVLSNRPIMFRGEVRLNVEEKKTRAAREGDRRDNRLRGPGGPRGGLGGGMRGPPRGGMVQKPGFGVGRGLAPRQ
Technique: RNA Bind-n-Seq
Form: RNA
Medium: in vitro
Concentration: 200 nM
Notes: whole 134-nt RNA, ends assumed
Added: 150 mM KCl
Relative to: input library
Reading: higher = stronger binding
Shared flanks, not repeated: GGGAGUUCUACAGUCCGACGAUC … UGGAAUUCUCGGGUGUCAAGG
Sequence | log2 enrichment
ACCAUGCAGGUGGGCAUCUUUGGGAAGUGGGGCAAGGGGGGGAUAGGGAGGGGGGUAACACUUUGGGAACAGGUGGUCCCAGGUCGUAUC | 1.06
UCCUGUGCUACACAUCGUAUGUACCGAAUCGGGGUUUGGGGUUUUUGGGGUUUUUGGGGAAAGUAUUAUGUUACGCCGUUCGGAUCUGCA | 0.733
AGUCCUGUGCUACACAUCGUAUGUACCGAAUCGGGAAAAAGGAAAAAGGGGAAAAAGGAAAGUAUUAUGUUACGCCGUUCGGAUCUGCAC | -0.915
ACCAUGCAGGUGGGCAUCUUUGGGAAGUGGGGCAAGGGGGGGAUAGGGAGGGGGGUAACACUUUGGGAACAGGUGGUCCCAGAUCGUUUC | 1.24
UCUCUCUCUUUCCCUCUAGGGUCACAUCUCCCAGGAAGAUCUCACUUCCCCACAGAAGCUCUUGGCCUGGCCUCCUGCAGUGCCACGCUC | 1.02
UGGGAGGUGGAUUUUGUUUAUUUUUUUAGCUCAUUUCCAGGGGUGGGAAUUUUUUUUUAAUAUGUGUCAUGUAUAAAGUUGUUUUUGAAA | 0.378
UCCUGUGCUACACAUCGUAUGUACCGAAUCGGGGUUUUUGGGGAGGGGUUUUUUUGGGGAAAGUAUUAUGUUACGCCGUUCGGAUCUGCA | 0.604
CACAGACAACACGCACCCACACAGACACAGAGGGAAGGGGUUGGGAUGGGGACAGGGUGCACAGCAGGGCGGGGUAGGACCAAAGCCCCU | 1.79
UGUGCUACACAUCGUAUGUACCGAAUCGGGGAAAAAAAGGGGUUUUUUUGGGGAAAAAGGGGAAAGUAUUAUGUUACGCCGUUCGGAUCU | -0.215
UCCUGUGCUACACAUCGUAUGUACCGAAUCGGGGAAAAAAAGGGGAGGGGUUUUUGGGGAAAGUAUUAUGUUACGCCGUUCGGAUCUGCA | 0.515
GUCCUGUGCUACACAUCGUAUGUACCGAAUCGGGGAAAGGGGUUUUUUUGGGGUGGGGAAAGUAUUAUGUUACGCCGUUCGGAUCUGCAC | 0.519
GCAGGAAGUAAAAACAAAUGGAAAUGUUUCGGAUAGUGGCAGGGGUGGGGGUUGCUAAGGAAAGGGUGGGAUGGGAGUGGGUAAAGAGUU | 1.22
UGACCUGCACGGACAUCAACACCCUGACAAGGCAGAAGGAACUUCUCCUGCAGAAGCUGAGCACAUUUGAGGAGACCAACCGCACCCUCC | 0.962
CAAGUCCUGUGCUACACAUCGUAUGUACCGAAUCGGCCCCGGCCCCGGCCCCGGGAAAGUAUUAUGUUACGCCGUUCGGAUCUGCACUUC | -0.834

Study 2
Target: Histone acetyltransferase KAT6A, winged helix 2, GST fusion (KAT6A, Homo sapiens, UniProt Q92794, residues 85-181)
Technique: protein binding microarray
Form: double-stranded DNA, one strand shown
Medium: in vitro
Concentration: not given
Notes: 8-mer, flanks averaged, mean of 2 arrays, mostly near background
Relative to: not given
Reading: higher = stronger binding
Target sequence (chain): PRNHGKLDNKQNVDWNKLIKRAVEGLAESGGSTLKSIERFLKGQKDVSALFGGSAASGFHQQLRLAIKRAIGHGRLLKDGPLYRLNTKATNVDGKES
Sequence | E-score
CCTTGGAG | 0.0512
ATCCGACG | 0.0282
AATGCGGG | 0.154
GCTTAGGA | -0.0595
ATCCCATC | -0.0818
CGGTAAGA | 0.0885
GGTTACGA | -0.127
CCTCATTA | -0.0457
ACATCACC | -0.178
CGATGTCC | 0.0182
CGACTGCG | 0.143
AAGTCCAC | -0.131
GTCGAATA | -0.0485
AAAGTGGG | 0.0458
ATCAAAAT | 0.0526
AGGACACA | 0.105
ACGCACCT | 0.00311
CATGTCGA | 0.00673
ATGGGACG | -0.114
CGACGGCC | 0.0295
ACGCTCAA | -0.0298
CAGCAATA | 0.101
ACGGATAA | -0.00915
CCCGCGTA | 0.0371
CGATCTAC | -0.0484

Study 3
Target: Centromere-binding protein 1, full length, His-tagged (CBF1, Saccharomyces cerevisiae, UniProt P17106, residues 1-351)
UniProt P17106, sequence (whole entry, looked up): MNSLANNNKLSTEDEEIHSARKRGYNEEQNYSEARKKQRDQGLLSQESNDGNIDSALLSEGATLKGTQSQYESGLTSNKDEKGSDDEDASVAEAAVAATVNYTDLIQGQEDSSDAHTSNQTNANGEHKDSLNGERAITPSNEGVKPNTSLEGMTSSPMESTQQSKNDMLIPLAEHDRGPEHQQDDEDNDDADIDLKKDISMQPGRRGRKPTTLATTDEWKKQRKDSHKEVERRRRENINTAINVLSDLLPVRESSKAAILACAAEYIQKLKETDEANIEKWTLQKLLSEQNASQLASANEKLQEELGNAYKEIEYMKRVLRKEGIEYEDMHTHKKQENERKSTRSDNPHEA
Technique: competition protein-binding microarray
Form: double-stranded DNA, one strand shown
Medium: in vitro
Concentration: 2 µM
Notes: whole 60-bp probe, lowest competitor level
Added: Pho4 competitor, 0.05 µM
Reading: higher = stronger binding
Shared flanks, not repeated: … GTCTTGATTCGCTTGACGCTGCTG
Sequence | fluorescence intensity [a.u.]
GTCTTGTCTCATTTTCACGTGCGCTTCCCCACTTCA | 750
CTGACCTGACATTTGTTAAAAAGGACGTAAGATCGC | 74.8
AAATTACTAAGTTGGTTCGTGGGTGACGCCGTATGA | 65
CTTCATTCAAAGGTCCACGTTCAATTAAGTAACAAG | 88.9
AAATTACTAAGTTGTCCTGTGGGTGACGCCGTATGA | 69.6
ACTCGGCTAGGTATCCCCGTGGATTTTTACCCAACA | 75.9
TGCGCAACAACTTGTCTAGTGGGTGTATGTCTAGAA | 68.2
GTCTTGTCTCATTTTCACGTGAGTTTCCCCACTTCA | 738
GTCTTGTCTCATTGTGCGGTGGGTGTCCCCACTTCA | 82.6
TTAAGTTTGTCACCGCTCGTGGCCGCTGTACTGTCT | 70
CAACAGTCAAAGGACCTCATGACAGATGGTACTTCG | 84.1
TGTCTGGAAGGGCCACACCCGGAATTGCAGGTCTAC | 44.6
CTATCGGCCGCCACTGTCGTGTCTGAGTAGACGGGA | 67
TATCACTGAGCTGTTCTCGTGGCCGTTAGGTAAACC | 85.1
GTCTTGTCTCATTTTCACGTGTATTTCCCCACTTCA | 717
CGTCCTAGCGATTGATTGGTGGGTGCCATGAGGAAG | 65.4
TGCGCAACAACTTGTAGTGTGGGTGTATGTCTAGAA | 76.7
CTTCTGTAAATTTGTCACAGGACTTGACGCGCCCCG | 105
ATCTGGCATCTTCACCACGTTATTTCTGCTGGTGAA | 100
CGTCCTAGTGATTTTCACGTGCCATCCATGAGGAAG | 1340
GTCTTGTCTCATTTTCACGTGTCGTTCCCCACTTCA | 785
AAGCGCCAAGTACAGAACGTGACGGTAAGAAAGAAT | 284
CTAACGAAGGTTTGCCCTGTGGGTGACAAGCCAAGT | 61.3

Study 4
Target: TAR DNA-binding protein 43, full length, His tag (TARDBP, Homo sapiens, UniProt Q13148, residues 1-414)
Technique: RNA Bind-n-Seq
Form: RNA
Medium: in vitro
Concentration: 20 nM
Notes: 6-mer, flanks averaged, single round
Added: 150 mM LiCl
Relative to: input library
Reading: higher = stronger binding
Sequence | 6-mer enrichment (R)
UUGGUC | 0.985
AAAGCG | 0.884
AUGUGA | 1.12
UGCCAA | 0.895
UCUGGG | 1.02
UUACAC | 0.908
GGCUUU | 1.01
UCCGCC | 0.933
AGGUGA | 1.06
AAGAUC | 0.812
CGUGGG | 1.16
UACCUA | 0.863
GUACUG | 0.942
AUACCG | 0.834
AUCUGG | 0.883
GACAAC | 0.817
CCGUUA | 0.882
CACGUC | 0.857
GCCAAG | 0.917
GAGCGU | 1.03
GAUCAU | 0.851
UGGGCC | 1.09
UACGAG | 0.891
CAGCCA | 0.901

Study 5
Target: RNA binding protein fox-1 homolog 2, RRM domain, GST-SBP tag (RBFOX2, Homo sapiens, UniProt O43251-10, residues 100-194)
Technique: RNA Bind-n-Seq
Form: RNA
Medium: in vitro
Concentration: 365 nM
Notes: natural RNA segment, single round, ends assumed
Relative to: no-protein control
Reading: higher = stronger binding
Shared flanks, not repeated: GGGAGUUCUACAGUCCGACGAUC … UGGAAUUCUCGGGUGCCAA
Target sequence (chain): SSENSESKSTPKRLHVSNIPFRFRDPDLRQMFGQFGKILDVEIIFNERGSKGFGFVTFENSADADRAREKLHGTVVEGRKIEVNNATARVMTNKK
Sequence | RBNS enrichment (R)
CAUUUCCUAGGAACGGUCUCUGACUCCUGGACAACUACUCCUGUAUCGGCUCUGGCUCCCCGGAACCAUUAGAGACUAACUGUUGUUUCCACAAAGGAGGGCUGAGAGUG | 0.245
AUAAGAGCUAAUCUCACCACUACAUGCCCAUCUAUGGAAGAUCUAACAGAAGCUUAGGGAACUAAGCAACAUAACAUAUCCAGCAAAAGGCAAGAUUCUAACCUAUACAG | 0.222
UGCACUGAAAUAGAGCAGUAAGCUUGUGAUAAAGGCCAAUUCCAGGUAGCUCUUGAAGGUGAUAGCCAUCUACUUUCCAGUGGCUGCCAACCACAGGGAGUGCCAGUUAA | 0.19
GUUGGGGGCCCCCGACCCACCAUACCUACGCCUAGGGAGCCCGUCCUCCAGUAUUCCGUCUGUAGCAGGAGCUAGGGCUGCUGCCUCAGCUCCAAGACAAGAAUGAACCU | 0.438
GAUAGAGGCAACAUACUGUUAAGUCAUAUUUAAGUAAUUAGUUUUCUCUUAAUGUUGCCAAUAGAAGGCUUGAGCAGGAAGCUUGUAGCACUGAUCUAAUUGUGUGUACA | 0.504
CAGAGCUAGGGCCCUACCUGAGCAAGUCGGCUGUGGCCCGGGAGGCAGCGUGACUCCUGCUGUCCUCCAGCCUUUCAGAUGAGAUCCUAUUCCAGCCAAAUGCAGGGAAA | 0.298
AGUGUGUUCUGCCUGCCCGUUACAGUGGAGCGUUCCGUGUCCAUAAAACGUUUUCUAACUGGGUGUUACUGAGUGCCCAUUUAUGUUAGUAUUUGCAAAAUACCAUAAAC | 0.32
AAACACUUGGAACAACAAAGACCAUAAGCAUCAUUUAGCAGUUGUAGCCAUUUUCUAGUUAACUCAUGUAAACAAGUAAGAGUAACAUAACAGUAUUACCCUUUCACUGU | 0.867
AGUCCUACGCUGCUGCUAACGACAAUACGACGGCUUACUCUGCUACUCGAGAACUAUUUUUAUGUAAUUAAUGUAUGCUUUCUUGUUUAUAAAUGCCUGAUUUAAAAAAA | 0.8
CUUUGGAUGGAAACCAUUCUUUAUAUUGAUGGACAGUUUUCAGAAAACUAUCAACAGGUGUACAAGAGUCAUGUUCAUUUAGAAUAGAGCAGUGUAAAUGCUAGGCCUCA | 0.297
UCUUGUCUAAUAUUCGUCUAUAAGGGAUUAAUUUUCAGACCCUUUAAUAAGUGAGUGCCAUAAGAAAGUCAAUAUAUAUUGUUUAAAAGAUAUUUCAGUCUAGGAAAGAU | 0.676
CAUGCCCAGUGCAUGUUGGGUCCAUGCACAACUCCUGGACCCGAGCUUUCACCAAGCUCUGGCCUCCAGGGAGCUGUGUCUUUCUCUGUCCCAUUAAGAUUUGGGCACAG | 0.483

Repeated from above (study 1):
Sequence | log2 enrichment
CAAGUCCUGUGCUACACAUCGUAUGUACCGAAUCGGCCCCGGCCCCGGCCCCGGGAAAGUAUUAUGUUACGCCGUUCGGAUCUGCACUUC | -0.834
UGUGCUACACAUCGUAUGUACCGAAUCGGGGAAAAAAAGGGGUUUUUUUGGGGAAAAAGGGGAAAGUAUUAUGUUACGCCGUUCGGAUCU | -0.215
UGGGAGGUGGAUUUUGUUUAUUUUUUUAGCUCAUUUCCAGGGGUGGGAAUUUUUUUUUAAUAUGUGUCAUGUAUAAAGUUGUUUUUGAAA | 0.378
ACCAUGCAGGUGGGCAUCUUUGGGAAGUGGGGCAAGGGGGGGAUAGGGAGGGGGGUAACACUUUGGGAACAGGUGGUCCCAGAUCGUUUC | 1.24
UCCUGUGCUACACAUCGUAUGUACCGAAUCGGGGUUUGGGGUUUUUGGGGUUUUUGGGGAAAGUAUUAUGUUACGCCGUUCGGAUCUGCA | 0.733
GUCCUGUGCUACACAUCGUAUGUACCGAAUCGGGGAAAGGGGUUUUUUUGGGGUGGGGAAAGUAUUAUGUUACGCCGUUCGGAUCUGCAC | 0.519
UGACCUGCACGGACAUCAACACCCUGACAAGGCAGAAGGAACUUCUCCUGCAGAAGCUGAGCACAUUUGAGGAGACCAACCGCACCCUCC | 0.962
AGUCCUGUGCUACACAUCGUAUGUACCGAAUCGGGAAAAAGGAAAAAGGGGAAAAAGGAAAGUAUUAUGUUACGCCGUUCGGAUCUGCAC | -0.915
UCUCUCUCUUUCCCUCUAGGGUCACAUCUCCCAGGAAGAUCUCACUUCCCCACAGAAGCUCUUGGCCUGGCCUCCUGCAGUGCCACGCUC | 1.02
GCAGGAAGUAAAAACAAAUGGAAAUGUUUCGGAUAGUGGCAGGGGUGGGGGUUGCUAAGGAAAGGGUGGGAUGGGAGUGGGUAAAGAGUU | 1.22
UCCUGUGCUACACAUCGUAUGUACCGAAUCGGGGAAAAAAAGGGGAGGGGUUUUUGGGGAAAGUAUUAUGUUACGCCGUUCGGAUCUGCA | 0.515
UCCUGUGCUACACAUCGUAUGUACCGAAUCGGGGUUUUUGGGGAGGGGUUUUUUUGGGGAAAGUAUUAUGUUACGCCGUUCGGAUCUGCA | 0.604
ACCAUGCAGGUGGGCAUCUUUGGGAAGUGGGGCAAGGGGGGGAUAGGGAGGGGGGUAACACUUUGGGAACAGGUGGUCCCAGGUCGUAUC | 1.06
CACAGACAACACGCACCCACACAGACACAGAGGGAAGGGGUUGGGAUGGGGACAGGGUGCACAGCAGGGCGGGGUAGGACCAAAGCCCCU | 1.79
